# Measurements pooled from the literature.
# A part holds a random share of what one study measured. Changes are numbered by the printed parent chain.
# UniProt Q15819, sequence (whole entry, looked up): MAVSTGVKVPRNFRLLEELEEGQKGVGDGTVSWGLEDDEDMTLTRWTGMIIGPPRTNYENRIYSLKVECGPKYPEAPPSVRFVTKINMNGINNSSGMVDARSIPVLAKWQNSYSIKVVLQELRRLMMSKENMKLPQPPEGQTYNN
# UniProt P51965, sequence (whole entry, looked up): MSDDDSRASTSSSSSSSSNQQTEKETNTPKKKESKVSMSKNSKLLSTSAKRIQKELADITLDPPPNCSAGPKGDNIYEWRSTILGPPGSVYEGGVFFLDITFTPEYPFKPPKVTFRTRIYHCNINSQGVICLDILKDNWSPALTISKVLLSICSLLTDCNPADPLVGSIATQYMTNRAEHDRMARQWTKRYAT
# UniProt Q96LR5, sequence (whole entry, looked up): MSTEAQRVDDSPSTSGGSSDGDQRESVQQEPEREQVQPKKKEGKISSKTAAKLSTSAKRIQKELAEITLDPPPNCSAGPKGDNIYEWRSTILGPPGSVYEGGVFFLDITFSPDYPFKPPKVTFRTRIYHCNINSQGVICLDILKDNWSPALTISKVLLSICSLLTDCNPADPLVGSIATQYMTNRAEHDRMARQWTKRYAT
# UniProt P49427, sequence (whole entry, looked up): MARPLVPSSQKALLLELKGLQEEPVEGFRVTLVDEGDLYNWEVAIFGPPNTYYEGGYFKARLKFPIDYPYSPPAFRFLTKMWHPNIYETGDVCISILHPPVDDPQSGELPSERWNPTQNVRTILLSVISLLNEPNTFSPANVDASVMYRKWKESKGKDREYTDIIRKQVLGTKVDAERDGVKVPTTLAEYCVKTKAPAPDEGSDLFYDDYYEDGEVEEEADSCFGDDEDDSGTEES
# UniProt P61088, sequence (whole entry, looked up): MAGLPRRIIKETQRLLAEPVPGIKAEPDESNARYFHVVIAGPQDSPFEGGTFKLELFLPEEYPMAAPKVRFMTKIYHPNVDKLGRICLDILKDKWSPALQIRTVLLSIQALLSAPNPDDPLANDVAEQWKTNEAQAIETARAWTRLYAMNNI
# UniProt Q8WVN8, sequence (whole entry, looked up): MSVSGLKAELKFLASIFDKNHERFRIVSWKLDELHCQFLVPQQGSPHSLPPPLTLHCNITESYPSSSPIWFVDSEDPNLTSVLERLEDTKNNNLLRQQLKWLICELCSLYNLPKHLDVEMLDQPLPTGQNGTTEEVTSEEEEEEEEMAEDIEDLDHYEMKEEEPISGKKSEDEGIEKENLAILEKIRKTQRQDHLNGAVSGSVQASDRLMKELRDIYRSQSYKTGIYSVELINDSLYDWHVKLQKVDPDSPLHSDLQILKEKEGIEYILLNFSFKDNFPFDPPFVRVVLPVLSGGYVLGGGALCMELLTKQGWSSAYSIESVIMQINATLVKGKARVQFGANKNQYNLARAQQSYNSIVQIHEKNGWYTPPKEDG
# UniProt P60604, sequence (whole entry, looked up): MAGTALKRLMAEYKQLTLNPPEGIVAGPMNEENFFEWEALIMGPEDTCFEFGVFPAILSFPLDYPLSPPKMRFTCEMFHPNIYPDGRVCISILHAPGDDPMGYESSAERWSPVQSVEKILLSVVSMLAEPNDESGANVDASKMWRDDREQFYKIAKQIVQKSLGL
# UniProt O14933, sequence (whole entry, looked up): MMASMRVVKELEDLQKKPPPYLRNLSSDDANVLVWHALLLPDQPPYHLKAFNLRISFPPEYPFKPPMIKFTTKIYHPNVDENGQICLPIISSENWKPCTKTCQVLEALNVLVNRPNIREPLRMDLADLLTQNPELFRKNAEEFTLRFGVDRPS
# UniProt P62256, sequence (whole entry, looked up): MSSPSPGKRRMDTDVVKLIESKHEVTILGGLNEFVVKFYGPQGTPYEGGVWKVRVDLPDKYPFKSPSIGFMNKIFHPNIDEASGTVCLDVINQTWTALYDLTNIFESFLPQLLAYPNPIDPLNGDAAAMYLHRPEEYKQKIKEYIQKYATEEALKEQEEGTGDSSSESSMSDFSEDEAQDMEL
# UniProt Q5VVX9, sequence (whole entry, looked up): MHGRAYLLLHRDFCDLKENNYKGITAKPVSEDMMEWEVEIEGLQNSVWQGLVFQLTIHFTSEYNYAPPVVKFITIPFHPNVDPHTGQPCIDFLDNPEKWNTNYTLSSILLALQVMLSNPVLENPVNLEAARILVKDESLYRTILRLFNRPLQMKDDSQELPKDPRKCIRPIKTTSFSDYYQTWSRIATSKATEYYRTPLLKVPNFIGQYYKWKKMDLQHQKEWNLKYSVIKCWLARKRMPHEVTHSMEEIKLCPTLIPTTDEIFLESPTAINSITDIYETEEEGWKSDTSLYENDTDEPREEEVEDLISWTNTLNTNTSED
# UniProt Q13404, sequence (whole entry, looked up): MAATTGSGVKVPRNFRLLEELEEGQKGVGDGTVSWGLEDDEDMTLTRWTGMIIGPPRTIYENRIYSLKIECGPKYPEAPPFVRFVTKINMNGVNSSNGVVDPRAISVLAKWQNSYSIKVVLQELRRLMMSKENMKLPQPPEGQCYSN

# Sample 1 — Substance: BRCA1 RING domain (UniProt P38398); technique: yeast two-hybrid; medium: yeast; setting: mostly zero background; baseline: not given; direction: higher = stronger interaction
target,lacZ reporter activity
UBE2V2 UBC core domain (UniProt Q15819),0
UBE2E2 UBC core domain (UniProt Q96LR5),0
UBE2N UBC core domain (UniProt P61088),0
UBE2H UBC core domain (UniProt P62256),0
UBE2G2 UBC core domain (UniProt P60604),0
UBE2V1 UBC core domain (UniProt Q13404),0
UBE2Q2 UBC core domain (UniProt Q8WVN8),0
CDC34 UBC core domain (UniProt P49427),0
UBE2E1 UBC core domain (UniProt P51965),0
UBE2L6 UBC core domain (UniProt O14933),0
UBE2U UBC core domain (UniProt Q5VVX9),12600

# Sample 2 — technique: DHFR PCA, deep sequencing; medium: yeast; added: (+)-ABA 0.032 µM; baseline: wild-type fitted maximum; direction: higher = stronger binding
# Target: ABI1, truncated, D143A, DHFR fusion (Arabidopsis thaliana)
# Setting: methotrexate growth selection, single substitutions
# Starting sequence: PYL1, truncated, DHFR fusion (Arabidopsis thaliana); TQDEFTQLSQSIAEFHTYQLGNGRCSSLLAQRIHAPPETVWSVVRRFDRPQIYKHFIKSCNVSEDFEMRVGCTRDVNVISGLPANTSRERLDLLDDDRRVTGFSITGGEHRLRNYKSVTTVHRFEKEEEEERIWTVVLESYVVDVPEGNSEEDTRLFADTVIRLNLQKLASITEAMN; partner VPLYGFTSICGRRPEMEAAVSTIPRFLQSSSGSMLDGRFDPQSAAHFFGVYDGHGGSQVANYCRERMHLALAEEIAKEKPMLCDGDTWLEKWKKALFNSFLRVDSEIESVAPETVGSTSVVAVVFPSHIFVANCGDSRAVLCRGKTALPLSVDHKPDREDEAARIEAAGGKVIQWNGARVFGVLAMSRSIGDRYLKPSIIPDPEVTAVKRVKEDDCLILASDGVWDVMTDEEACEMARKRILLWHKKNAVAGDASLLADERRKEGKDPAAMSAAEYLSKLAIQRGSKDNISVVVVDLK
Variant,relative binding score [%]
E147A,20.4
E14V,2.93
T86L,13.7
D159H,-2.98
R132H,39.7
Y115G,2.94
S117H,-6.92
S104L,-2.95
F103T,1.9
E139H,3.39
R69A,16.7
S42Q,27.6

# Sample 3 — target: CCND2, cyclin fold, Cln2 fusion (human); technique: yeast growth competition, sequencing; medium: yeast; setting: weak parent motif; baseline: not given; direction: higher = stronger binding
# Starting sequence: DOT1L docking peptide (human); SEAKRRIVFTITT; partner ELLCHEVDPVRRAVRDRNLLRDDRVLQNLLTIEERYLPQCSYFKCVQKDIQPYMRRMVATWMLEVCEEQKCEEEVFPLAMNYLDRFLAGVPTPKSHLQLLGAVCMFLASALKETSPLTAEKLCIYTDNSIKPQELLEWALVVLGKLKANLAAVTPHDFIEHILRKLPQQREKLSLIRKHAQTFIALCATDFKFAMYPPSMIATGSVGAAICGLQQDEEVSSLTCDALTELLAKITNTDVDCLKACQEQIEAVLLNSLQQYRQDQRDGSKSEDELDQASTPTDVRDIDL
Variant,normalised enrichment score
E2A,0.649
I7A,0.0374
T10A,0.129
K4A,0.302
S1A,0.151
R5A,0.029

# Sample 4 — target: MAFG, bZIP domain (human); technique: DHFR protein complementation; medium: yeast; baseline: wild-type JUN-FOS pair; direction: higher = stronger binding
# Setting: single substitutions, most at no-binding floor
# Starting sequence: JUN, bZIP domain (human); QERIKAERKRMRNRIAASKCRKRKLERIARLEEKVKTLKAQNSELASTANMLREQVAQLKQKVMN; partner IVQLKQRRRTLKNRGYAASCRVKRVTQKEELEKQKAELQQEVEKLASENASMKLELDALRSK
Variant,binding fitness
T37E,-1.21 natural log
K34S,-1.45 natural log
L31K,-1.58 natural log
A57Y,-1.17 natural log
K36H,-1.33 natural log
E32N,-1.55 natural log
V56F,-1.46 natural log
A57V,-1.29 natural log
R53G,-1.57 natural log
E54N,-1.45 natural log
T37A,-1.4 natural log
M51L,-1.46 natural log
A40H,-1.54 natural log
S47W,-1.46 natural log
K36P,-1.5 natural log
S43W,-1.47 natural log
R30C,-1.51 natural log
T48G,-1.48 natural log
S47L,-1.5 natural log

# Sample 5 — technique: RNA Bind-n-Seq; molecule type: RNA; medium: in vitro; tested at: 365 nM; baseline: no-protein control; direction: higher = stronger binding
# Target: RNA binding protein fox-1 homolog 2, RRM domain, GST-SBP tag (RBFOX2, Homo sapiens, UniProt O43251-10, residues 100-194)
# Setting: natural RNA segment, single round, ends assumed
# Constant ends, left off below: GGGAGUUCUACAGUCCGACGAUC … UGGAAUUCUCGGGUGCCAA
# Construct (chain): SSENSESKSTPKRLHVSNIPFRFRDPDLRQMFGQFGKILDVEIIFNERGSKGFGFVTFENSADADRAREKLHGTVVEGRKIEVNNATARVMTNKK
Oligonucleotide,RBNS enrichment (R)
AUAAAAGAAAAAAAUAUGUGGUCUGUGAAAUCUAAAAUAUUUACUACCUGGCCUGUUGGAGGAAAGGUUUGCCAAUCUCUGUUUUAUACCAUUAACUAUGAGAUUAACAA,0.476
GUCUUUAAAGAGAAUUUUGGGGCUCAAUAAUUUAACAUAAUGUCAGUGUUAAAGCACUUAAUCCAAAUUAGCCCAUCUUUAACUGUUUUGAAAAAUCUAUAUUUAUUAAA,1.06
AGUGAGGAGAAUGGGGAGUCCAUGGUUCAAGGUCAGAUGCGGCCACCAGCUGGCUUUGUGACCUUGGGCGAGUCGCCUCCCCUCUCUGAGCUGAAGCCGCCCCUCCCCUA,0.227
ACUCUGUGUCUCCUGCCUUGUUGUUCGGUAAUAAGACUGUAGCGUAUGUAAAGGAGGGAAGGGAAGGCUUAAAAAGUCAUGUUCUUGCACCCUUUUUAAAUCACAGAAAU,0.81
ACCCUGGGGGUGUAUUAUAUAUAGUGUAUAUUUUUUCAAUGUUGUCGUGAGCGCAGCUCCUGUGUUUCUGUGUGCAGCUCACAGCCUUGUAUGUGUGCGUGUGCGUGGCA,4.41
CCUUCACAAGUCUGCCUUUCACCUGUGUCUGCUUCAGCAAAAUGUUCUUUCACAUUUGCCCCAGCAAAACCCCAUCUAACACAACUGACUUUCCAAAGAACCCUUAAGUU,0.417
AAUAUUUUUUUCUUAGUGAUUUUGACAGUUUAAAUGUUUAACAACUUAAAGCAUUAAAAAUGCUUAUUAAUAACUUUGGUCAUUUAAAAAAUGCUACAAUGACUUCCUAU,0.498
GUCCCUUCCCCCUGAAGCAAUAGCCCCUCCCCACCUCCUGCAAUACGCCUUUCCAAUCUUUAUUGGAAGUCUCUCCCUGCCUACUUCCUAAUUUAUUCUUAUUUGACAGA,0.92

# Repeated from above (sample 4):
Variant,binding fitness
S47L,-1.5 natural log
R30C,-1.51 natural log
L31K,-1.58 natural log
T48G,-1.48 natural log
M51L,-1.46 natural log
T37E,-1.21 natural log
A57Y,-1.17 natural log
